Measured values of several laboratories.
Every numbered part comes from another study and shows a few of its results, in no order. Positions count from the first letter of the parent shown.

Block 1
Target: CCNE1, cyclin fold, Cln2 fusion (human)
Method: yeast growth competition, sequencing
Sample: yeast
Notes: weak parent motif
Baseline: not given
Direction: higher = stronger binding
Parent: RB1 docking peptide (human); PKPLKKLRFDIEG
For `L7F`, “normalised enrichment score” read 0.0468.
`K5V`: “normalised enrichment score” -0.338.
`F9K` — result for “normalised enrichment score”: 0.673.
`R8T`: “normalised enrichment score” 0.873.
Under “normalised enrichment score”, `D10W` is recorded as 0.595.
`K6W`: “normalised enrichment score” 0.32.
For `F9V`, “normalised enrichment score” read 0.515.
`F9W`: “normalised enrichment score” 0.15.
Under “normalised enrichment score”, `D10V` is recorded as 0.17.
For `E12V`, “normalised enrichment score” read -0.0229.
`K5M` — result for “normalised enrichment score”: -0.574.
`P1W`: “normalised enrichment score” 0.86.
`L4G`: “normalised enrichment score” 0.526.
`P3K`: “normalised enrichment score” -0.3.
`R8H` — result for “normalised enrichment score”: 0.741.
`G13E`: “normalised enrichment score” -0.289.
For `E12D`, “normalised enrichment score” read -0.153.

Block 2
Target: ABI1, truncated, D143A, DHFR fusion (Arabidopsis thaliana)
Method: DHFR PCA, deep sequencing
Sample: yeast
Notes: methotrexate growth selection, single substitutions
With: (+)-ABA 200 µM
Baseline: wild-type fitted maximum
Direction: higher = stronger binding
Parent: PYL1, truncated, DHFR fusion (Arabidopsis thaliana); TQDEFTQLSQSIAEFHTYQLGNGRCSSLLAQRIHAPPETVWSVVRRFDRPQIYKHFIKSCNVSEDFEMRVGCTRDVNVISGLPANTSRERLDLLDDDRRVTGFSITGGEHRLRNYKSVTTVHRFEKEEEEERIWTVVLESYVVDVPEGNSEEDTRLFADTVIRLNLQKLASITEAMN; partner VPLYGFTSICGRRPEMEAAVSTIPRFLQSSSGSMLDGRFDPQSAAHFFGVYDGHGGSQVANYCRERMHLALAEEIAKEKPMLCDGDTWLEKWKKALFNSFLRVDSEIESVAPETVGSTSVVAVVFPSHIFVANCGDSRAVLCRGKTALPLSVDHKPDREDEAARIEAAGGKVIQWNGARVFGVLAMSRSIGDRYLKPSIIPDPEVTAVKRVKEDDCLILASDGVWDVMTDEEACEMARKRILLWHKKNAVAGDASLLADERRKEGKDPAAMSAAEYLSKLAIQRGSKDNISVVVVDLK
`F56M` — result for “relative binding score”: 93.9%.
Under “relative binding score”, `D65P` is recorded as 108%.
For `T1K`, “relative binding score” read 88.9%.
For `I12Y`, “relative binding score” read 67.1%.
For `S63E`, “relative binding score” read 101%.
`F47N`: “relative binding score” -25.5%.
`L166D` — result for “relative binding score”: -0.965%.
Under “relative binding score”, `V118Y` is recorded as 56.4%.
For `F5W`, “relative binding score” read 97.4%.
`D75M` — result for “relative binding score”: 106%.
`V43D`: “relative binding score” -1.99%.
`N61Q` — result for “relative binding score”: 109%.

Block 3
Target: XBP1, bZIP domain (human)
Method: DHFR protein complementation
Sample: yeast
Notes: single substitutions, most at no-binding floor
Baseline: wild-type JUN-FOS pair
Direction: higher = stronger binding
Parent: JUN, bZIP domain (human); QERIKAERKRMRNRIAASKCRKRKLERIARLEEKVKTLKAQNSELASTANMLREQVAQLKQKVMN; partner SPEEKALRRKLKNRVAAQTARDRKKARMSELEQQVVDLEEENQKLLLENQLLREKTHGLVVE
With `N42Q` the binding fitness was -1.25 natural log.
The binding fitness of `I28V` is reported as -1.05 natural log.
With `S47P` the binding fitness was -1.51 natural log.
`L45G` gave a binding fitness of -1.51 natural log.
For `A46M`, the binding fitness was -0.595 natural log.
The binding fitness of `I28N` is reported as -1.49 natural log.
`V35C` has a binding fitness of -1.39 natural log.
For `T37Q`, the binding fitness was -0.37 natural log.
With `E33P` the binding fitness was -1.46 natural log.

Other studies, line by line
`PhoQ, residues 284 288 289 292 302 303 SCCLKL` has a fold induction of 3.86 (PhoP, residues 12 14 15 18 19 AWHSL (Escherichia coli, UniProt P23836); Sort-seq, refers to: YFP reporter; E. coli; PhoQ-PhoP variant library, with: 10 µM Mg2+; baseline: high Mg2+ state, higher = stronger signaling).

For quick reference, copied from above (block 2):
`F47N`: “relative binding score” -25.5%.
`L166D` — result for “relative binding score”: -0.965%.
Under “relative binding score”, `V118Y` is recorded as 56.4%.
